# Measured values of several laboratories.
# Compare with care: the assays were run in different laboratories. Numbers after ± are the reported error.
# gdpP residues 84-659: gdpP, residues 84-659 (Bacillus subtilis, UniProt P37484)
# Sequence of UniProt P37484 (84-659, looked up): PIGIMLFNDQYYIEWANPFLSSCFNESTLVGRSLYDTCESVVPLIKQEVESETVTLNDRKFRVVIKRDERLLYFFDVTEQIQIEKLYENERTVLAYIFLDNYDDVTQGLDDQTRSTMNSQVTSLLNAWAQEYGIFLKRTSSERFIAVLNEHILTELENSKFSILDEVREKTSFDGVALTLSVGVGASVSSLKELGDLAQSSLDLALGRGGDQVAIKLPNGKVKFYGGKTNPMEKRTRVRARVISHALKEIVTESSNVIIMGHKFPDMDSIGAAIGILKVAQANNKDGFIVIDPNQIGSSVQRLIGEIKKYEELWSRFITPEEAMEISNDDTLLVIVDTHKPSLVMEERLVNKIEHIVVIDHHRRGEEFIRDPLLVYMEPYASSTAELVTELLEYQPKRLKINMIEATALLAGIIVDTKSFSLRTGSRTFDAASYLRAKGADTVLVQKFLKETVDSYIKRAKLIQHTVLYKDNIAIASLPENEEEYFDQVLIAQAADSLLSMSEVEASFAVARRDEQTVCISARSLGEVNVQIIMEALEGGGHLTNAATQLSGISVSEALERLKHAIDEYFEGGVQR
# ALB: Albumin (ALB, Bos taurus, UniProt P02769)
# Sequence of UniProt P02769 (whole entry, looked up): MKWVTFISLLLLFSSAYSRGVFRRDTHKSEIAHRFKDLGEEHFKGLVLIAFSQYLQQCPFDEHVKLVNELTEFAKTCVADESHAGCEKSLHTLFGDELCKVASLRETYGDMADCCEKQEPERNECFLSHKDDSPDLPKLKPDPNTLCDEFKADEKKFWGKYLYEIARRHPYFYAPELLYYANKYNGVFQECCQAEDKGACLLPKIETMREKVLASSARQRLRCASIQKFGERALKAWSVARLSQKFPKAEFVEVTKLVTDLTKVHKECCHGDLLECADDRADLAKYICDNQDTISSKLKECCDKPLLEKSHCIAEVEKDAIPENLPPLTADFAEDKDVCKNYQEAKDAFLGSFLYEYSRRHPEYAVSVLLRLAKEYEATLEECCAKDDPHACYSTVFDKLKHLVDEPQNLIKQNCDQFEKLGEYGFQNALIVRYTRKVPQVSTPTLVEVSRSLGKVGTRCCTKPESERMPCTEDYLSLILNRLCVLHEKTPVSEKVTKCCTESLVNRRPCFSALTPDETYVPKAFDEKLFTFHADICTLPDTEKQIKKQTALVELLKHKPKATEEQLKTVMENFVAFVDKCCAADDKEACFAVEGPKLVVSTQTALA
# Sequence of UniProt A0A109QYD3 (whole entry, looked up): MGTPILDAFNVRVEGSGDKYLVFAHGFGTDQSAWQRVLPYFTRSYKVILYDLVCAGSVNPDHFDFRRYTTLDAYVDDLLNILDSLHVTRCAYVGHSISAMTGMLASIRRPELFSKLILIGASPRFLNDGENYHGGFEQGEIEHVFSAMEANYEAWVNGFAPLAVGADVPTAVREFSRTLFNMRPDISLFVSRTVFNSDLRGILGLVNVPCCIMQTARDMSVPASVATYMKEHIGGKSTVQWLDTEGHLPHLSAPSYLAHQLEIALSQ
# Sequence of UniProt P21564 (whole entry, unmodified, looked up): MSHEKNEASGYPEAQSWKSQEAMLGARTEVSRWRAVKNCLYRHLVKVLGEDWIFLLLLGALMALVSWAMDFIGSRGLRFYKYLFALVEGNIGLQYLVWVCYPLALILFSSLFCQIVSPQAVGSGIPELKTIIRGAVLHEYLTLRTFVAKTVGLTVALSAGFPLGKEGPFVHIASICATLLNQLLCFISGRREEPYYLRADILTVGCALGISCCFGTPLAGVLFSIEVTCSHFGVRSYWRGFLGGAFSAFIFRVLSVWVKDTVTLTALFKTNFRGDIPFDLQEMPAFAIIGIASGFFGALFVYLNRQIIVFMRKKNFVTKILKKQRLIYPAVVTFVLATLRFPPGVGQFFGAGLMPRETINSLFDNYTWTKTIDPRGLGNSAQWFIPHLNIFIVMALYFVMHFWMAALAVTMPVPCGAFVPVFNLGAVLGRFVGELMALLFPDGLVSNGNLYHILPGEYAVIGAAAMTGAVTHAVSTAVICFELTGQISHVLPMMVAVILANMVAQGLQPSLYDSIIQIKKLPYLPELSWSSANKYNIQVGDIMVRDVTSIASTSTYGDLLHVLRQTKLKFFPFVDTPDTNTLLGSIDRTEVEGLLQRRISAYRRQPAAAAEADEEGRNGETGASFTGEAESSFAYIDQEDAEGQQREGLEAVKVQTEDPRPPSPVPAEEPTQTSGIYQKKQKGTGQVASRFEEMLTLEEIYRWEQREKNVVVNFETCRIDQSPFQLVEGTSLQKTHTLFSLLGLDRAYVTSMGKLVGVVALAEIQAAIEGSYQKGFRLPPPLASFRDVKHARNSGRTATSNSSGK
# Sequence of UniProt O43526 (whole entry, unmodified, looked up): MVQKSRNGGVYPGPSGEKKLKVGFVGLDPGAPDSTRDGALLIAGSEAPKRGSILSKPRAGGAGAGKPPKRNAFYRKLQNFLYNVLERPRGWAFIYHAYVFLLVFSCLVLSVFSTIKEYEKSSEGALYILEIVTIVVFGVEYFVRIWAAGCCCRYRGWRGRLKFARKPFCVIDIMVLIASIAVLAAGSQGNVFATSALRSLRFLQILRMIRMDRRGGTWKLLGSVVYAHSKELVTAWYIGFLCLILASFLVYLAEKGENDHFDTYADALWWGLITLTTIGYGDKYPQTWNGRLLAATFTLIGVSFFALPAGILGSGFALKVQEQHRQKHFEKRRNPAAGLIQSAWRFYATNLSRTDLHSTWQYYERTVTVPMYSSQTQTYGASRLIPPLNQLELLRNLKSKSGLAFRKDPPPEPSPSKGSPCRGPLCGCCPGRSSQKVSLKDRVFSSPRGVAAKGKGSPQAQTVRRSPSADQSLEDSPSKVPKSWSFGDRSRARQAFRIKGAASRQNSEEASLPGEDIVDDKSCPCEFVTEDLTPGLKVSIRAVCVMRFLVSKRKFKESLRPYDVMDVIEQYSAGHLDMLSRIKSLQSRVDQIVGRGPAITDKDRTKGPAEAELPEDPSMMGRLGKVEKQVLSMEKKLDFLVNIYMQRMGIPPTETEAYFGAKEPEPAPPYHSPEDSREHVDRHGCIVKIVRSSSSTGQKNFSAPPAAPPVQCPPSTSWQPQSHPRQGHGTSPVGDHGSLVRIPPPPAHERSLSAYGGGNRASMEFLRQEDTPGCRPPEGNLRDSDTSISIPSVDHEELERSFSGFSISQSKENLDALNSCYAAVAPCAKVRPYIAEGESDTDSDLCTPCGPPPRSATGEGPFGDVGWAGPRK
# Sequence of UniProt Q9UKS7 (whole entry, looked up): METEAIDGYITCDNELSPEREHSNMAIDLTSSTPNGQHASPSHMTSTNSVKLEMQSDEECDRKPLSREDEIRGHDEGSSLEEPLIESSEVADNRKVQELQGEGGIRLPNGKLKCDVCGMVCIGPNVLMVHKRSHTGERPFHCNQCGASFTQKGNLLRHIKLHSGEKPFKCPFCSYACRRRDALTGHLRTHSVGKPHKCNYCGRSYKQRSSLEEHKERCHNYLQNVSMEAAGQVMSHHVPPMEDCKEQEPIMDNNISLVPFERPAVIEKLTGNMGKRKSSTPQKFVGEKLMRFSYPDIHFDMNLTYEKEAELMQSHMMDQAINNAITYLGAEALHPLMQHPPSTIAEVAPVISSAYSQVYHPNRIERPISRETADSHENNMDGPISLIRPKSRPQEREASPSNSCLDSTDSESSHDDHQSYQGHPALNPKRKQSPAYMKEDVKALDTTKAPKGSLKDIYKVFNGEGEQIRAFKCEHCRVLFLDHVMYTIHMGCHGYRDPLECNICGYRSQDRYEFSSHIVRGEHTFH
# Sequence of UniProt P21729 (whole entry, looked up): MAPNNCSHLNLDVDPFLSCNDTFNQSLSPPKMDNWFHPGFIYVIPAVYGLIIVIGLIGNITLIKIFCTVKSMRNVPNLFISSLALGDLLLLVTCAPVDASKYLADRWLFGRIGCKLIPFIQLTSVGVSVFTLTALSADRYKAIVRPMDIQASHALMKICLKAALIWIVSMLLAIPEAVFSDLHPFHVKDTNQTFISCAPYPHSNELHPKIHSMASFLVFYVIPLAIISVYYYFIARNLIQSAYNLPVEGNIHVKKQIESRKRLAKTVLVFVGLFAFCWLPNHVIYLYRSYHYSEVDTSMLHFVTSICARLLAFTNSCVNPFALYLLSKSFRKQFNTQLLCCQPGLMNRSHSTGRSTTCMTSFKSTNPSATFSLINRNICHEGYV
# Sequence of UniProt Q06124 (whole entry, looked up): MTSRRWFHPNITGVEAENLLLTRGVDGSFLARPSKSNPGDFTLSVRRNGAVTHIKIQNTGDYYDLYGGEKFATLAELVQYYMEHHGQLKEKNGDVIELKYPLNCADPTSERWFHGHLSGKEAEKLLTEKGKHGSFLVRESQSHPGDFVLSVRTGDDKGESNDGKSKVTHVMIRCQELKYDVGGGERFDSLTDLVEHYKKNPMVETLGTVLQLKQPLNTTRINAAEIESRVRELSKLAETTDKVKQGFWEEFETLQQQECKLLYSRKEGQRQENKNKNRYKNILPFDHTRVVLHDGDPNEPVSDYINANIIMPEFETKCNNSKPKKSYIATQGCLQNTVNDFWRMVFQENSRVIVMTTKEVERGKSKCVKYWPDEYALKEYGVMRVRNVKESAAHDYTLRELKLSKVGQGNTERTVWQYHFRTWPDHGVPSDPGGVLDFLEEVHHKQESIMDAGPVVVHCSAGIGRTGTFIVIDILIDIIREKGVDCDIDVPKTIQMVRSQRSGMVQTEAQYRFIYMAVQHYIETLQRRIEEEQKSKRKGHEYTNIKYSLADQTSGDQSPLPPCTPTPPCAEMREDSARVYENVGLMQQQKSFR
# Sequence of UniProt P15328 (whole entry, looked up): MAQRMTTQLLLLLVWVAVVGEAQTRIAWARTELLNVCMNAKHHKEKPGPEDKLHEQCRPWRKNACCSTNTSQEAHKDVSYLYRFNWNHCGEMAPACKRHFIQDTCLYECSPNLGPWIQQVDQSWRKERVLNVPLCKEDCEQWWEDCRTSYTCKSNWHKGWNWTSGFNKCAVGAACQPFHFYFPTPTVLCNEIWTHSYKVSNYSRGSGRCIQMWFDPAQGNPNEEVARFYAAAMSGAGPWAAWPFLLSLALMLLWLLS
# Sequence of UniProt P01317 (whole entry, looked up): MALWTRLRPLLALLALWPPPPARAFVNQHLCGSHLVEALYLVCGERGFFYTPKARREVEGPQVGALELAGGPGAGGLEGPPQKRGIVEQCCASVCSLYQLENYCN
Compound,target,test,system,conditions,scale,quantity,result
c1ccc(CN2CCOCCOCCN(CCCCCCCCCCCCCCN3CCOCCOCCN(CCCCCCCCCCCCCCN4CCOCCOCCN(Cc5ccccc5)CCOCCOCC4)CCOCCOCC3)CCOCCOCC2)cc1,"Quinolone resistance protein NorA (Staphylococcus aureus, UniProt P0A0J7)",,1199B,NorA efflux,,MIC,~8 µM
Cn1cc(-c2cccc(CN3CCC4(CC3)COc3c4ccc4c3CN([C@H]3CCC(=O)NC3=O)C4=O)c2)cn1,"CRBN/Zinc finger protein Helios (Homo sapiens, UniProt Q96SW2+Q9UKS7)",degrader,"HEK293, HiBiT-tagged Helios",concentration not given,,time to maximal degradation,≤ 3 h
Nc1ncc2ncn([C@@H]3O[C@@H]4COP(=O)(O)O[C@H]5[C@@H](O)[C@H](n6cnc7cnc(N)nc76)O[C@@H]5COP(=O)(O)O[C@H]4[C@H]3O)c2n1,gdpP residues 84-659,"substrate, HPLC",,"100 µM, 37 °C, upper limit if undegraded 24 h, together with: enzyme 1 µM",,degradation rate,1.7 ± 0.2 mol/min/mol enzyme
O[C@@H]1[C@@H](O)[C@H](O[C@@H]2OC[C@@H](O)[C@H](O)[C@H]2O)C[C@H]2N[C@@H]12,"Exo-1,4-beta-xylosidase xlnD (xlnD, Emericella nidulans, UniProt Q5BAS1)",covalent inhibitor,Aspergillus nidulans,pH 4.5,,kinact/Ki,66.7 M⁻¹ s⁻¹
COc1cc(COc2ccc3c(C)cc(=O)oc3c2)cc(OC)c1OC,"Nucleoside transporter 1 (Plasmodium vivax, UniProt A5K8B0, D23E)","adenosine uptake, inhibitor",,D23E mutant,relative to: D23E mutant over wild type,IC50 ratio,~3.5 fold
O=C(c1cccc(-n2cccc2)c1)N1CCCN(S(=O)(=O)c2ccc(F)cc2)CC1,"Procathepsin L (CTSL, Homo sapiens, UniProt P07711)",FRET,,,,Hill slope,1.19
O=C(Nc1cccc(-c2nn[nH]n2)c1)c1cc(-c2ccsc2)cc(C(F)(F)F)c1,CTX-M-27 beta-lactamase,surface plasmon resonance,,,,Kd/Ki difference,2 to 3 fold
Nc1ncnc2c1ncn2[C@@H]1O[C@H](COP(=O)(O)OP(=O)(O)OC[C@H]2O[C@@H](O)[C@H](O)[C@@H]2O)[C@@H](O)[C@H]1O,"Protein mono-ADP-ribosyltransferase PARP14, macrodomain 2 (PARP14, Homo sapiens, UniProt Q460N5)",binding,,,,-T*ΔS,1.73 kcal/mol
CCN(Cc1ccccc1)C(=O)CCc1nc(CN2CCN(C(=O)Cc3ccc(OC)c(OC)c3)CC2)no1,"Sodium channel protein type 11 subunit alpha (Scn11a, Rattus norvegicus, UniProt O88457)","sodium current, inhibitor, whole-cell patch clamp",rat DRG neurons,"30 nM, at -40 mV",,current density,-14.6 ± 1.19 pA/pF
CCc1ccc(NC(=O)CSc2nnc(-c3ccncc3)n2C2CC2)cc1,"Orco (Drosophila melanogaster, UniProt Q9VNB5)","calcium mobilization, agonist",HEK293 expressing Orco,,relative to: VUAA1 maximum,efficacy,150%
CC(=O)N[C@@H](Cc1c[nH]cn1)C(=O)N[C@@H](CCCNC(=N)N)C(=O)N[C@@H](CCCNC(=N)N)C(=O)N[C@@H](CCCNC(=N)N)C(=O)N[C@@H](CCCNC(=N)N)C(=O)N[C@@H](CCCNC(=N)N)C(=O)N[C@@H](CCCNC(=N)N)C(=O)N[C@@H](CCCNC(=N)N)C(=O)N[C@@H](CCCNC(=N)N)C(=O)N[C@@H](Cc1c[nH]cn1)C(N)=O,ALB,fluorescence quenching,,concentration not given,,number of binding sites,1.17
Nc1nc2c(O)cc(N3CC3)cc2s1,"Histone-lysine N-methyltransferase, H3 lysine-36 specific, SET domain (NSD1, Homo sapiens, UniProt Q96L73)","covalent inhibitor, mass spectrometry",,"30 °C, SET domain",,kinact/KI,3.5 M⁻¹ s⁻¹
CC[C@H](C)[C@H](NC(=O)[C@H](CC(=O)O)NC(C)=O)C(=O)N[C@H](C(=O)N[C@H](C(=O)N[C@@H](CCCNC(=N)N)C(=O)N[C@@H](Cc1ccc(O)cc1)C(=O)N[C@@H](CC(N)=O)C(=O)NCC(=O)N[C@@H](CCCCN)C(=O)N[C@H](C(=O)N[C@@H](Cc1c[nH]c2ccccc12)C(=O)N[C@@H](Cc1c[nH]c2ccccc12)C(=O)N[C@@H](CCCNC(=N)N)C(=O)O)C(C)C)[C@@H](C)O)[C@@H](C)O,"Insulin (INS, Bos taurus, UniProt P01317)",isothermal titration calorimetry,,"pH 2.6, 25 °C",,"Ka, site 3",41600 M⁻¹
CC(=O)N[C@@H](CC(C)C)C(=O)N[C@@H](CCC(=O)O)C(=O)N[C@@H](Cc1c[nH]cn1)C(=O)N[C@@H](CC(=O)O)C(=O)Nc1ccc2c(C)cc(=O)oc2c1,"Caspase-8 (CASP8, Homo sapiens, UniProt Q14790)","substrate cleavage, substrate, fluorogenic AMC release",,enzyme 0.25 activity units/µL,,Vmax,1100 ± 37.6 RFU/min
O=C(O)c1ccccc1-c1c2ccc(=O)c([As]3SCCS3)c-2oc2c([As]3SCCS3)c(O)ccc12,"Tyrosine-protein phosphatase non-receptor type 11 (PTPN11, Homo sapiens, UniProt Q06124)",,,"1 µM, full-length, together with: DiFMUP",,time to full inhibition,~150 min
CCCCC/C=C\C/C=C\C/C=C\C/C=C\CCCC(=O)NC(CO)C(=O)O (stereo in doubt),"Potassium voltage-gated channel subfamily KQT member 2 (KCNQ2, Homo sapiens, UniProt O43526, R291Q)","ion current, two-electrode voltage clamp",,10 µM,relative to: wild type,Gmax increase,decreased
NC(=NN=Cc1cccs1)[S][Ru+]([Cl])([P](c1ccccc1)(c1ccccc1)c1ccccc1)[P](c1ccccc1)(c1ccccc1)c1ccccc1.[Cl-],ALB,"binding, UV-Vis absorption titration",,,,apparent association constant,61100 M⁻¹
CC(C)C[C@@H](NC(=O)[C@@H](CCCCN)NC(=O)[C@@H](C)NC(=O)[C@@H](CCCNC(=N)N)NC(=O)[C@@H](Cc1c[nH]cn1)NC(=O)[C@H](NC(=O)[C@@H](CO)NC(=O)[C@H](NC(=O)[C@@H](Cc1c[nH]c2ccccc12)NC(=O)[C@H](N)Cc1ccc(O)cc1)C(C)C)[C@H](C)O)C(=O)N1CCC[C@@H]1C(=O)N[C@H](CC(=O)O)C(N)=O,"Microtubule-associated protein tau, PHF6 peptide (MAPT, Homo sapiens, UniProt P10636)",ThT fluorescence,,"500 µM, room temperature, 50 µM tau",,fibril formation inhibition,no inhibition
O=P1(O)OC[C@H]2O[C@@H](n3cnc4cncnc43)[C@H](O)[C@@H]2OP(=O)(O)OC[C@H]2O[C@@H](n3cnc4cncnc43)[C@H](O)[C@@H]2O1,gdpP residues 84-659,HPLC,,concentration not given,"relative to: c-di-AMP, higher = slower hydrolysis",hydrolysis rate fold decrease,36
CS(C)(=O)=Nc1ccc(-c2ccc(-c3nc4cc(O[C@@H]5CO[C@H]6[C@@H]5OC[C@H]6O)[nH]c4cc3F)cc2)cc1,"PRKAA2/PRKAB1, with gamma2 (Homo sapiens, UniProt P54646+Q9Y478)","enzyme activity, activator",,"60 min, 50% above basal activity, together with: ATP 50 µM",,EC150,0.252 nM
CC1=C(C)C(Oc2c(F)cc3c(C)cc(=O)oc3c2F)OC1=O (racemic),"RMS3 (Lathyrus oleraceus, UniProt A0A109QYD3)","enzyme activity, substrate, DiFMU release",,pre-steady state,,K1/2,0.49 µM
Nc1nc2ncc(CNc3ccc(C(=O)N[C@@H](CCC(=O)NCCOCCOCCNC(=O)CN4CCN5CCN(CC4)CC(=O)[O][Al]([18F])[O]C(=O)C5)C(=O)O)cc3)nc2c(=O)[nH]1,"Folate receptor alpha (FOLR1, Homo sapiens, UniProt P15328)",radioligand binding,CAL-51 xenograft homogenate,"concentration not given, together with: self-block 5 µM",relative to: total binding,nondisplaceable binding,~11%
O=C(NC1CCCC1=O)C1CCC1 (stereo not shown),"HTH-type quorum-sensing regulator RhlR (rhlR, Pseudomonas aeruginosa, UniProt P54292)","reporter gene, agonist, rhlI-lacZ reporter",Escherichia coli,,,maximum activation,93%
COc1cc(COc2ccc3c(c2)CN(C(=O)[C@H](CCC(=O)O)NC(=O)[C@H](CC(=O)O)NC(=O)[C@H](CC(=O)O)NC(=O)[C@H](CCC(=O)O)NC(=O)[C@@H](CCCNC(=N)N)NC(=O)[C@@H](CCCNC(=N)N)NC(=O)[C@@H](CCCNC(=N)N)NC(=O)[C@H](C)N(C)C(=O)[C@H](Cc2ccccc2)NC(=O)[C@@H](NC(=O)[C@H](Cc2ccccc2)NC(=O)[C@H](C)NC(=O)[C@H](CCCNC(=N)N)N(C)C(=O)[C@@H]2CCCN2C(=O)[C@H](CCCNC(=N)N)NC(=O)CNC(=O)c2ccc4c(c2)C2(OC4=O)c4ccc(O)cc4Oc4cc(O)ccc42)[C@@H](C)OCc2cc(OC)c(OC)cc2[N+](=O)[O-])[C@H](C(=O)N[C@@H](CCC(=O)O)C(=O)N[C@@H](CCC(=O)O)C(=O)N[C@H](C(N)=O)C(C)C)C3)c([N+](=O)[O-])cc1OC,"Epidermal growth factor receptor (EGFR, Homo sapiens, UniProt P00533)","reporter phosphorylation, substrate",,"concentration not given, 60 min, after photoactivation",,phosphorylation,56.8 ± 0.4%
CCCNC(=O)[C@H](CC(C)C)NC(=O)[C@H](Cc1c[nH]cn1)NC(=O)CNC(=O)[C@@H](NC(=O)[C@H](C)NC(=O)[C@H](Cc1c[nH]c2ccccc12)NC(=O)[C@H](CCC(N)=O)NC(=O)[C@@H](Cc1ccccc1)NC(=O)CCCCCNC(=O)CN1CCN(CC(=O)O)CCN(CC(=O)O)CCN(CC(=O)O)CC1)C(C)C [indium-111 labelled],"Gastrin-releasing peptide receptor (Mus musculus, UniProt P21729)",lung uptake,CF-1 mouse,"dose not given, 1 h post-injection, together with: bombesin 100 µg blocking",relative to: unblocked,uptake reduction,~75%
O=C(NCc1ccccc1Cn1cncn1)c1cn(Cc2ccccc2)c2ccccc12,"Histone acetyltransferase KAT5 (KAT5, Homo sapiens, UniProt Q92993)",activator,,20 µM,,histone acetyltransferase activity,increased
O=C([N-]c1nc2ccccc2[nH]1)c1cnccn1.[Cl-].[Ru+2].c1ccc(P(c2ccccc2)c2ccccc2)cc1.c1ccc(P(c2ccccc2)c2ccccc2)cc1,ALB,tryptophan fluorescence quenching,,concentration not given,,number of binding sites,0.93
O=C(O)COc1ccc(Cl)cc1,"Chloride channel protein (Torpedo marmorata, UniProt P21564, C212S)",inside-out patch,,"20 mM, -80 mV",,single-channel current amplitude,0.24 pA
CC(C)P(=S)(NP(=S)(C(C)C)C(C)C)C(C)C,"Alpha-amylase (Bacillus subtilis, UniProt P00691)",fluorescence quenching,,"concentration not given, pH 6.8, 310 K",,ΔG of binding,-4.31 kcal/mol
CCN(CC)c1ccc2c(c1)[O][Pt-2]1([Cl])[N+](=C2)Cc2cccc[n+]21 (stereo not shown),ALB,binding to BSA,,,,binding free energy,-8.32 kcal/mol
CC(C)CC(NC(=O)C(NC(=O)NC(C(=O)O)C(C)C)C1CCNC(=N)N1)C(=O)NCCCNC(C(=O)O)C(OC1OC(CN)C(O)C1O)C1OC(n2ccc(=O)[nH]c2=O)C(O)C1O (stereo not shown),"Phospho-N-acetylmuramoyl-pentapeptide-transferase (mraY, Aquifex aeolicus, UniProt O66465)","binding, isothermal titration calorimetry",,"wild type, without Mg2+",,ΔH,-9.1 ± 0.6 kcal/mol
O=C(c1ccc(Nc2c3c(nc4ccccc24)CCCC3)cc1)C1CC1,"Cholinesterase (BCHE, Equus caballus, UniProt P81908)","enzyme activity, inhibitor",,100 µM,,inhibition,-35%
CC(=O)/C=C/c1c(CCCC(=O)NCC(=O)NCc2cn(CCCNC(=O)c3ccc4c(c3)C(=O)OC43c4ccc(N(C)C)cc4Oc4cc(N(C)C)ccc43)nn2)[nH]c(=O)[nH]c1=O,HLA-A2 loaded with NLV peptide,fluorescence polarization,,concentration not given,,binding,no binding
CC(=O)NC(Cc1ccc(Br)c(Cl)c1)C(=O)N[C@@H](C)C(=O)N1CCC[C@H]1C(=O)N1CCC[C@H]1C(=O)N[C@@H](CCC(=O)O)C(=O)N[C@@H](Cc1c[nH]cn1)C(=O)N[C@@H](CO)C(=O)N[C@H](C(=O)N[C@@H](C)C(N)=O)[C@@H](C)OP(=O)(O)O (stereo partly shown),"Cyclin-dependent kinase 18 (CDK18, Homo sapiens, UniProt Q07002)","enzyme activity, inhibitor",,10 µM,,inhibition,5.59%

# A few entries again:
Compound,target,test,system,conditions,scale,quantity,result
CC1=C(C)C(Oc2c(F)cc3c(C)cc(=O)oc3c2F)OC1=O (racemic),"RMS3 (Lathyrus oleraceus, UniProt A0A109QYD3)","enzyme activity, substrate, DiFMU release",,pre-steady state,,K1/2,0.49 µM
CCc1ccc(NC(=O)CSc2nnc(-c3ccncc3)n2C2CC2)cc1,"Orco (Drosophila melanogaster, UniProt Q9VNB5)","calcium mobilization, agonist",HEK293 expressing Orco,,relative to: VUAA1 maximum,efficacy,150%
O=C(O)COc1ccc(Cl)cc1,"Chloride channel protein (Torpedo marmorata, UniProt P21564, C212S)",inside-out patch,,"20 mM, -80 mV",,single-channel current amplitude,0.24 pA
